Experimental data pooled from the literature.
Each numbered part is a random draw from the data of one study; scales do not carry over between parts. Several values in a cell are separate wells, animals, samples, runs or records.
Sequence of UniProt P49759 (whole entry, looked up): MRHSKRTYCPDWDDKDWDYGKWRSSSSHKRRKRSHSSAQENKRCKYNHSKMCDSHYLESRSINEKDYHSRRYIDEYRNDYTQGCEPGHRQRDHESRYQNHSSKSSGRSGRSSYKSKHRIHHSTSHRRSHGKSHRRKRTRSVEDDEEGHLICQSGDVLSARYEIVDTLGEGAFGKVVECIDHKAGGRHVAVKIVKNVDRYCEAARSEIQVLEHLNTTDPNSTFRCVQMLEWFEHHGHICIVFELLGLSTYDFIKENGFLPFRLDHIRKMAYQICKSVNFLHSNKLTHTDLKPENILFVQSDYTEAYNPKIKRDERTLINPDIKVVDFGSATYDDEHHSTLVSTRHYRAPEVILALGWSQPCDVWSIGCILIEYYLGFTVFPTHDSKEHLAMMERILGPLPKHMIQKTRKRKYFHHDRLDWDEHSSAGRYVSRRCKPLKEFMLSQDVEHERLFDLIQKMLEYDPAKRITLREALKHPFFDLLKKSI
Sequence of UniProt Q15349 (whole entry, looked up): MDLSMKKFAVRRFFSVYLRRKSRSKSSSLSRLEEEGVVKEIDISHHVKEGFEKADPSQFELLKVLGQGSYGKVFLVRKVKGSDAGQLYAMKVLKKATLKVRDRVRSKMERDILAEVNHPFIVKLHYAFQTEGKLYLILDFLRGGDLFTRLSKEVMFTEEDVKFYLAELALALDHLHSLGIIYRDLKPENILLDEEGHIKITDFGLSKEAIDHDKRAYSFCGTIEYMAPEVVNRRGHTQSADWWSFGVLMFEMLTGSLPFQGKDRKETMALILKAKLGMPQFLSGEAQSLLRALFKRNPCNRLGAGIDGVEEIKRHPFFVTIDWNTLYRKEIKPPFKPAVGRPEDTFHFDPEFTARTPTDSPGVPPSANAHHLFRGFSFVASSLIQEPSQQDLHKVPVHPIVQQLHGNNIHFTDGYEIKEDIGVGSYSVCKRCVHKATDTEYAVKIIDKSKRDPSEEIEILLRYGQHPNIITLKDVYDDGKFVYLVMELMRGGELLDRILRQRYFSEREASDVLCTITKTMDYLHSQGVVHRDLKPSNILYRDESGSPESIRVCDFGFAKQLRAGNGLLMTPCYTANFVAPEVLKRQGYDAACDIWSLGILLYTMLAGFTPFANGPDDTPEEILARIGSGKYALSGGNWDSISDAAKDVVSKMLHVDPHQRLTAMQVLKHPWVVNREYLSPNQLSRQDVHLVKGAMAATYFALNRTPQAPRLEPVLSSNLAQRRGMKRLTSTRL
Sequence of UniProt Q15303 (whole entry, looked up): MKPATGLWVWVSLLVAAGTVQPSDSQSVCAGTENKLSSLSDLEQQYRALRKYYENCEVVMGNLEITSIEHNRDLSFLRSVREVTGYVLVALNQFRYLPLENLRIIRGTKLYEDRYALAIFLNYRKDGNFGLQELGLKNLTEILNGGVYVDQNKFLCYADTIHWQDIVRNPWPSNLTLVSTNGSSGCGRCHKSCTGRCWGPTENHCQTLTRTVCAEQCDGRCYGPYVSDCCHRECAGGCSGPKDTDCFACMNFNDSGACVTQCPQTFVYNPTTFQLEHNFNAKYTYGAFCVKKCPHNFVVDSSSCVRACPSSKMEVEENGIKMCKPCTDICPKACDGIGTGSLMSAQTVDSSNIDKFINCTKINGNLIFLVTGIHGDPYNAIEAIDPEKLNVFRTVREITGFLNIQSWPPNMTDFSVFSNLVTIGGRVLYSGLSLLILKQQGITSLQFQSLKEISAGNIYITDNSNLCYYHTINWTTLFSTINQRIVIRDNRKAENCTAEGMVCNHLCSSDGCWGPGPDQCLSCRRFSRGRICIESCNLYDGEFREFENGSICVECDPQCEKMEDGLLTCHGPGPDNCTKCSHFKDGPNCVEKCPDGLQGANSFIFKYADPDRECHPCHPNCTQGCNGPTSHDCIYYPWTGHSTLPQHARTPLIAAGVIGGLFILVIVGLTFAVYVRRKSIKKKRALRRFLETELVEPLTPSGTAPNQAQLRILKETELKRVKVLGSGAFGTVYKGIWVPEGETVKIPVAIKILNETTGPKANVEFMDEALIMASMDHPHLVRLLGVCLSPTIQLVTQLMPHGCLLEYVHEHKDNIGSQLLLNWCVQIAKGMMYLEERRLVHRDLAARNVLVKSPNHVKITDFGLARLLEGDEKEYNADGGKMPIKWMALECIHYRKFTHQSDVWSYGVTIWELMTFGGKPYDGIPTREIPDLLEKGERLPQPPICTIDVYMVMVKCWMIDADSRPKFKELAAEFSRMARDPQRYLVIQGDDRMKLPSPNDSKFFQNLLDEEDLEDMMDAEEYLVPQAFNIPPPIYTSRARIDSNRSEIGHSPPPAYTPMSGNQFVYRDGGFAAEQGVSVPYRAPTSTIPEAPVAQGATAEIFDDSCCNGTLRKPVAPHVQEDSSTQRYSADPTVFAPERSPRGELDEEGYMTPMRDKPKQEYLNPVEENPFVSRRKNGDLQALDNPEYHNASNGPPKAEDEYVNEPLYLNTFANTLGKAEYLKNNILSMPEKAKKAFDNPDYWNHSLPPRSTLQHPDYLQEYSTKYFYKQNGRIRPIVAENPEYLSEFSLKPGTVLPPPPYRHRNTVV
Sequence of UniProt P52333 (whole entry, looked up): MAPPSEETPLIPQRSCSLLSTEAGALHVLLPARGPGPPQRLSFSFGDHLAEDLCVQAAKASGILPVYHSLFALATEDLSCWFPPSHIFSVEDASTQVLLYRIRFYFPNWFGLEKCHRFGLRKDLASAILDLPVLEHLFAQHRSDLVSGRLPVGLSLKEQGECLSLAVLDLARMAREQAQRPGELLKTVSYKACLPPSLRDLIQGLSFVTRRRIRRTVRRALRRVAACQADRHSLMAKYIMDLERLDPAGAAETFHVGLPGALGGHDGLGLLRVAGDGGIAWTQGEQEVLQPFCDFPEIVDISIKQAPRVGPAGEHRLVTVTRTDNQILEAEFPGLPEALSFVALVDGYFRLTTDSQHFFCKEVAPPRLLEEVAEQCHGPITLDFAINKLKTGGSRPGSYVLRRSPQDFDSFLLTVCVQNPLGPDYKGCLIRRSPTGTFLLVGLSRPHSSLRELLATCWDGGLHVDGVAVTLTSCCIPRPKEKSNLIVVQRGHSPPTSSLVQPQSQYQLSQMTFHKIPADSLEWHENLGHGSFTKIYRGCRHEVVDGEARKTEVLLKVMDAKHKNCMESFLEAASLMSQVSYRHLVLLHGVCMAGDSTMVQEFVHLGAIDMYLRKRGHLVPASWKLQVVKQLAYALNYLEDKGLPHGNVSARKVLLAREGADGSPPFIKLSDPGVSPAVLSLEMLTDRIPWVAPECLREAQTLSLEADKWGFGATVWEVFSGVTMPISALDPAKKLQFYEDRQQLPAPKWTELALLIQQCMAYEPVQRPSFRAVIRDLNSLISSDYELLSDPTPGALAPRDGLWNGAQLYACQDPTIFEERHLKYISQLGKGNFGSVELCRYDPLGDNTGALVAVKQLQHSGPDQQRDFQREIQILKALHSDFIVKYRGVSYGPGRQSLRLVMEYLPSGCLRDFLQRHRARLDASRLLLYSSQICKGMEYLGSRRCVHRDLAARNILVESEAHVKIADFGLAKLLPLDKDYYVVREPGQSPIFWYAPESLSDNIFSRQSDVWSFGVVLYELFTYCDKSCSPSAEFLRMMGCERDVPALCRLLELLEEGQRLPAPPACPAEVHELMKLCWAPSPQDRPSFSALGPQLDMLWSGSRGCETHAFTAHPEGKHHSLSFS
Sequence of UniProt P45984 (whole entry, looked up): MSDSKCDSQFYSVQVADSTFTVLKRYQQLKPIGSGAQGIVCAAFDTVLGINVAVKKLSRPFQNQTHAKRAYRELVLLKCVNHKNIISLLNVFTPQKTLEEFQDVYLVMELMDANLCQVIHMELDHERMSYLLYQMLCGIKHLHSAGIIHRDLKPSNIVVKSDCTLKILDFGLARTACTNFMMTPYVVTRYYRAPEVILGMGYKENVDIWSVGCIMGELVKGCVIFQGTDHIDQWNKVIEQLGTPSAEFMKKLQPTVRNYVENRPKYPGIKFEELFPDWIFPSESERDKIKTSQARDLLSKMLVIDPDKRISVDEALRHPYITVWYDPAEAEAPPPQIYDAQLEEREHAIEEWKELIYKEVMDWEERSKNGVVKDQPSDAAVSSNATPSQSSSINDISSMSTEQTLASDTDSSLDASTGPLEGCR

Sample 1 — route: intravenous
SMILES: Cn1cc(-c2cccc(CN3CCC4(CC3)COc3c4ccc4c3CN([C@H]3CCC(=O)NC3=O)C4=O)c2)cn1
cynomolgus monkey; 1 mg/kg — MRT(0-t): 5.51 h and 4.45 h and 4.31 h.
cynomolgus monkey, plasma; 1 mg/kg — MRT(0-t): 4.76 h.
It gave 1.96 h for MRT(0-t) (rat, plasma; 1.02 mg/kg).

Sample 2 — effect on: enzyme activity; action: inhibitor; technique: Ub-TR-FRET; sample: HECT domain; tested at: 0.005081 µM; direction: higher = more chain formation
Target: E3 ubiquitin-protein ligase NEDD4, HECT domain (Homo sapiens, UniProt P46934)
Construct (P46934 938-1319, limits assumed): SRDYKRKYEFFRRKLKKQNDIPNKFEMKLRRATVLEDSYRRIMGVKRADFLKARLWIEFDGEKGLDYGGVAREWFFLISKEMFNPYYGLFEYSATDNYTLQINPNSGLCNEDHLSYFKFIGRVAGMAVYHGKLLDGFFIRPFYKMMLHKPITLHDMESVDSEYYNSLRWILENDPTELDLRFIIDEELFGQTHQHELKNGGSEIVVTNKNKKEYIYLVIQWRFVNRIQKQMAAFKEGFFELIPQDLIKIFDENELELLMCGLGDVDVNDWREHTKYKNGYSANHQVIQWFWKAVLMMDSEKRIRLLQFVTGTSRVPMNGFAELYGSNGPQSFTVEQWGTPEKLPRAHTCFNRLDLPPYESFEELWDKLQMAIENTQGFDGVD
Under “ubiquitin chain formation AUC”, `CNC(=O)/C=C/CNCCCN1c2ccccc2CCc2ccc(Cl)cc21.Cl` is recorded as 132000 a.u. and 130000 a.u.
For `CCOC(=O)/C=C/CN(CCCCN1c2ccccc2CCc2ccc(Cl)cc21)C(C)C.O=C(O)/C=C\C(=O)O`, “ubiquitin chain formation AUC” read 84700 a.u. and 86400 a.u. and 81900 a.u. and 84100 a.u. and 84900 a.u. and 83600 a.u.
`CCONC(=O)/C=C/CNCCCCN1c2ccccc2CCc2ccc(Cl)cc21.O=C(O)/C=C\C(=O)O`: “ubiquitin chain formation AUC” 37800 a.u. and 35200 a.u. and 26400 a.u. and 27600 a.u. and 27100 a.u. and 38400 a.u.
`CC(C)ONC(=O)/C=C/CNCCCCN1c2ccccc2CCc2ccc(Cl)cc21.O=C(O)/C=C\C(=O)O` — result for “ubiquitin chain formation AUC”: 37300 a.u. and 30300 a.u. and 31300 a.u. and 38600 a.u. and 29000 a.u. and 37000 a.u.
Under “ubiquitin chain formation AUC”, `N#C/C=C/CNCCCCN1c2ccccc2CCc2ccc(Cl)cc21.O=C(O)/C=C\C(=O)O` is recorded as 92600 a.u. and 93400 a.u. and 101000 a.u. and 102000 a.u. and 103000 a.u. and 90000 a.u.
`CCOC(=O)/C=C/CNCCCCN1c2cc(Cl)ccc2C(=O)N(C)c2ccccc21.O=C(O)/C=C\C(=O)O` — result for “ubiquitin chain formation AUC”: 91600 a.u. and 97000 a.u. and 92400 a.u.
For `CCOC(=O)/C=C/CNCCCCN1c2ccccc2C(=O)N(C)c2ccc(Cl)cc21.O=C(O)/C=C\C(=O)O`, “ubiquitin chain formation AUC” read 98500 a.u. and 98000 a.u. and 99100 a.u.
For `CNC(=O)/C=C/CNCCCCN1c2ccccc2CCc2ccc(Cl)cc21.Cl`, “ubiquitin chain formation AUC” read 86400 a.u. and 87300 a.u. and 70900 a.u. and 82900 a.u. and 68800 a.u. and 71200 a.u.

Sample 3 — effect on: kinase activity
Compound: CN(C1COC1)C(C)(C)/C=C(\C#N)C(=O)N1CCC[C@H]1Cn1nc(-c2ccc(Oc3ccccc3)cc2F)c2c(N)ncnc21
RPS6KA4: Ribosomal protein S6 kinase alpha-4 (RPS6KA4, Homo sapiens, UniProt O75676)
Sequence of UniProt O75676 (whole entry, looked up): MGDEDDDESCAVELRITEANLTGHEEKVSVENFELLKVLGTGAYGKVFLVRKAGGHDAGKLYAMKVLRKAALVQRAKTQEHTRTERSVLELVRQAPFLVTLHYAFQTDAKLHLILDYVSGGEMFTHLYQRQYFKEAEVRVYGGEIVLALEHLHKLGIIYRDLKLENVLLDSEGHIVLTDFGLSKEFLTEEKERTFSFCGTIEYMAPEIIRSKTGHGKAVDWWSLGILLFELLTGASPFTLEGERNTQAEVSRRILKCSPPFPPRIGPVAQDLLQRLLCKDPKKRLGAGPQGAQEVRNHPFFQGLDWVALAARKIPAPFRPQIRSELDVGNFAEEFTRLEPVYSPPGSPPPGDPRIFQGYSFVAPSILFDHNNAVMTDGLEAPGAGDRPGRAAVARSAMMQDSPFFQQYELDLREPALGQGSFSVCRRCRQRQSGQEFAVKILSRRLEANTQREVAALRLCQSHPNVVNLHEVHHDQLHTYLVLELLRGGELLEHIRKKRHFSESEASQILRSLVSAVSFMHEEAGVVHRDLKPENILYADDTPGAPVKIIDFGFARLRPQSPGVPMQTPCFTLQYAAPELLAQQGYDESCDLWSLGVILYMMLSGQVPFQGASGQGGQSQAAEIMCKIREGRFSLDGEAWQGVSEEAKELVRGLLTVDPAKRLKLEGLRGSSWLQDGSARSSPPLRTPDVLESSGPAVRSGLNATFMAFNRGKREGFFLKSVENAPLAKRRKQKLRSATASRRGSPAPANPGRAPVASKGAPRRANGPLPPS
The inhibition was 95% (ERBB4 (Homo sapiens, UniProt Q15303); 1 µM).
It gave -1% for inhibition (MAPK9 (Homo sapiens, UniProt P45984); 0.1 µM).
CLK1 (Homo sapiens, UniProt P49759); 1 µM — inhibition: 4%.
For RPS6KA2 (Homo sapiens, UniProt Q15349); 1 µM: inhibition read 5%.
The inhibition was -2% (JAK3 (Homo sapiens, UniProt P52333); 0.1 µM).
For RPS6KA4; 0.1 µM: inhibition read 5%.
It gave 0% for inhibition (RPS6KA4; 1 µM).
For PRKACA (Homo sapiens, UniProt P17612); 1 µM: inhibition read -5%.

Mixed results
`C=CCN1C(=O)C(O)(C(=O)O)Oc2cc(F)ccc21` (centres unmarked) has an inhibition of 0.43% (Arabidopsis thaliana; hypocotyl length; Col-0, seedlings; 3.125 µg/mL).

A few entries again (sample 3):
It gave 0% for inhibition (RPS6KA4; 1 µM).
For PRKACA (Homo sapiens, UniProt P17612); 1 µM: inhibition read -5%.
